Measured values gathered from unrelated publications.
Numbered parts are unrelated; each lists some results of a single study. Positions count from the first letter of the parent shown.

Series 1 — technique: protein binding microarray; molecule type: double-stranded DNA, one strand shown; matrix: in vitro; tested at: not given; reference: not given; direction: higher = stronger binding
Target: Histone acetyltransferase KAT6A, both winged helices, GST fusion (KAT6A, Homo sapiens, UniProt Q92794, residues 1-181)
Setting: 8-mer, flanks averaged, mean of 2 arrays, mostly near background
Residues (chain): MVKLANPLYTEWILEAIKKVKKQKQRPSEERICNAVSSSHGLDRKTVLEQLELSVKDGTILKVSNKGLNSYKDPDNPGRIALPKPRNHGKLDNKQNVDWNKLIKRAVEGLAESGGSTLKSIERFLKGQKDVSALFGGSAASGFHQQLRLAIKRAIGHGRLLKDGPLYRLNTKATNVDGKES
Oligonucleotide	E-score
ATGATTTG	0.0157
GTTTTTAA	0.0499
ATGTAGCC	-0.151
AGTGTTGC	-0.0255
ACATATGG	-0.135
CGATAGGC	0.0934
CACACCAG	-0.153
GGAGATCC	-0.0443
ATTACACC	-0.0114
GACTCCCC	-0.158
ACCCTCTA	-0.251
ATAAATTC	0.0125
CAACCTAG	-0.0452
GCTTCGCC	0.129
CTTTGCGC	0.218
CGTGTAGC	-0.0239
CCCGAAAA	0.0433
AAGGAAGC	-0.0346
CTCCTCTC	-0.0164
CCTATGCC	-0.0454
AAACTGAA	-0.0581
AAACACTT	-0.12
CCCAATAA	-0.165
ATGACCTC	-0.0945

Series 2 — target: CCNE1, cyclin fold, Cln2 fusion (human); technique: yeast growth competition, sequencing; matrix: yeast; setting: strong parent motif; reference: not given; direction: higher = stronger binding
Starting sequence: RBL1 docking peptide (human); GSAKRRLFGEDPP
Substitution	normalised enrichment score
FSAKRRLFGEDPP [G1F]	7.89
GSAKRRLFGEDFP [P12F]	5.66
GSAARRLFGEDPP [K4A]	3.74
GSAKRRLQGEDPP [F8Q]	-0.15
GSASRRLFGEDPP [K4S]	2.69
VSAKRRLFGEDPP [G1V]	6.66
GSAKRRLFFEDPP [G9F]	6.03
GSAKRRLFGEDAP [P12A]	6.57
GSKKRRLFGEDPP [A3K]	0.507
GSAKRRLFGEDPD [P13D]	6.54
GSAKRRLFGEDIP [P12I]	5.99
GSAKRRLFGTDPP [E10T]	4.63
CSAKRRLFGEDPP [G1C]	6.76
HSAKRRLFGEDPP [G1H]	6.54
GMAKRRLFGEDPP [S2M]	5.25
GSADRRLFGEDPP [K4D]	0.000382
MSAKRRLFGEDPP [G1M]	6.25
GSAKRRLFDEDPP [G9D]	6.79
GSLKRRLFGEDPP [A3L]	0.92
GSAKYRLFGEDPP [R5Y]	0.448
GSAKRRLTGEDPP [F8T]	0.212
GSAKRHLFGEDPP [R6H]	2.19
GSAKRRLFKEDPP [G9K]	6.4
GSAKRRLFTEDPP [G9T]	7.26

Series 3 — technique: RNA Bind-n-Seq; molecule type: RNA; matrix: in vitro; tested at: not given; reference: input RNA pool; direction: higher = stronger binding
Target: RING finger protein unkempt homolog, zinc fingers 1-6, GST-SBP tag (UNK, Homo sapiens, UniProt Q9C0B0, residues 30-357)
Setting: RNA with constant flanks, human and mouse sites, ends assumed
Shared flanks, not repeated: GGGAGUUCUACAGUCCGACGAUC … CAACAGAGGAUUGAGCAUCA
Construct (chain): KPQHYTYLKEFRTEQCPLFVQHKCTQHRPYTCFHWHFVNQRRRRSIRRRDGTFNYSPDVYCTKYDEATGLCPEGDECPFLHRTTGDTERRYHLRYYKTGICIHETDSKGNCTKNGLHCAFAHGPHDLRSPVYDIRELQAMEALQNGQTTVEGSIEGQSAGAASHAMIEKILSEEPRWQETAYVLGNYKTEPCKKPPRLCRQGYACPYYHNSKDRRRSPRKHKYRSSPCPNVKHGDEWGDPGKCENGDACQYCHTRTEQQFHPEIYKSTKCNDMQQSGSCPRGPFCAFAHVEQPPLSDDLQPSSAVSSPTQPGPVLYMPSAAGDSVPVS
Oligonucleotide	bound/input enrichment [ratio]
UCCGAUAUGGACUACAUUCAGACAGACGCUAUCAUCAAUUAUGGAAAUUCCGGAGGCCCGUUAGUAAACCUGGAUGGCGAGGUGAUUGGGAUUAACACCUUGAAGGUGACGGCGGGCAUC	0.317
CUUACCUGGCACCUCGUCCAAGAAGAAUGCCUUCCAAGUAUGCCAAGUUGUCAGGAAUUUACAUCAGCAAGUAUUUACCAUGCCAGUGAGUUUACACAGUGGAGGAGAGUCAUAGUGCUU	0.216
ACCCAGUUCGUGCUGCACCUGCUGGUCGGCUUUGUCUUCGUGGUGAGUGGUCUGGUCAUCAACUUCGUCCAGCUGUGCACGCUGGCGCUCUGGCCGGUCAGCAAGCAGCUCUACCGCCGC	0.0692
GGACUUGAACAACUUACAAAGUCUCCGGUGGAAUUUGUAGAAUACAACAAGAUGCAACUUAGCAGGAUAUAUCCCAAGGGAACACGUGUGGAUUCAUCCAACUACAUGCCUCAACUCUUC	0.216
GUUGGAAUGGGGAGGAGGAAGCUUUUUUUUUUUUAAUUUUUUAAAAAAUCAUAUCUGCUAAUUUAAGAGUGAGAUUUGCUUUAUGGAAGUCAACUCAAUAAAAACUGCAUUCGAGUUGCA	1.1
UGGCUUUGGAAUGUACAAACAGGAGAACUAAGGACAAAAAUGAGCCAGUCUCAUGAAGACAGUUUGACAAGUGUGGCUUGGAAUCCAGAUGGGAAGCGCUUUGUGACUGGAGGUCAGCGU	0.272
CAGUCCAUACAGACUUGGGGGUGGUUUGGGGUAUUGCUGUGUGUUCUUUAUGCUUAUGUUCUUAGAGUAUGGUCAGAUGGGACAAGACCCCCUCCUGUCUUCUACAUGACAUGGAGAAAG	0.491
UAUUUCAGUGUCAUGGACUUCCUCAAAAUGAAGUGCUAUUUUCUUAUUUUUAAUCAAAUAACUAGACAUAUAUCAGAAACUUUAAAAUGUAAAAGUUGUACACUUUCAACAUUUUAUUAC	5.56

Series 4 — technique: universal PBM; molecule type: double-stranded DNA, one strand shown; matrix: in vitro; tested at: 600 nM; direction: higher = stronger binding
Target: Sal-like protein 4, full length isoform A (SALL4, Homo sapiens, UniProt Q9UJQ4, residues 1-1053)
Chain of UniProt Q9UJQ4 (whole entry, looked up): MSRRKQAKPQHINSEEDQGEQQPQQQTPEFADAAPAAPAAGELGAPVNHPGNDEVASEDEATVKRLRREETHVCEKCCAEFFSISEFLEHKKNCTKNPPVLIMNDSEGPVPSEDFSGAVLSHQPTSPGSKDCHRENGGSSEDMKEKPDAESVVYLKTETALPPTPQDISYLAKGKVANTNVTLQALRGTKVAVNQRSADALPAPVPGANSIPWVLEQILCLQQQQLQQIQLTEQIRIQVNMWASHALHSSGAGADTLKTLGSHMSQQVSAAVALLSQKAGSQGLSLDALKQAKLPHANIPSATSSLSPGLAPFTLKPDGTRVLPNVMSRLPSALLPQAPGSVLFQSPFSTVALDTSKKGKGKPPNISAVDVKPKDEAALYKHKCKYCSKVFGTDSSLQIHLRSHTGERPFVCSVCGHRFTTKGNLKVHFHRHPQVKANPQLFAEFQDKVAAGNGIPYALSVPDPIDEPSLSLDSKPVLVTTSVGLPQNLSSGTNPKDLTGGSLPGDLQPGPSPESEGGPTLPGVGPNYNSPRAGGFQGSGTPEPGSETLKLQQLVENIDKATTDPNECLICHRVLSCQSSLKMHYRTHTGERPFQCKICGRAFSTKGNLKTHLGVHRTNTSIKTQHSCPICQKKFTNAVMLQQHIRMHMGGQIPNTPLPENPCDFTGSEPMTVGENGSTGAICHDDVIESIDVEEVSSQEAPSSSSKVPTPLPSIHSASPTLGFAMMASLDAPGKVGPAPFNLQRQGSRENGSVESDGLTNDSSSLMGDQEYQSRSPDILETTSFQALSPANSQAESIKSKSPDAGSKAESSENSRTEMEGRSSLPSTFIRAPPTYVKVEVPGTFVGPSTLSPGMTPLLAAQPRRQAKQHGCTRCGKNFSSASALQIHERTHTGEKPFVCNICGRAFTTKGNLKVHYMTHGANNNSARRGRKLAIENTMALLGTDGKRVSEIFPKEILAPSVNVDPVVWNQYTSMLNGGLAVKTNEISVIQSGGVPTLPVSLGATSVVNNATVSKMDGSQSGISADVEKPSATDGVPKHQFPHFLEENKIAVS
Setting: 8-mer, flanks averaged, mean of replicates
Oligonucleotide	E-score
AAGTAAGA	0.0876
CCCCCTAG	-0.256
AATACCGG	-0.0574
CGCCGGAG	-0.241
CAAGGGTG	-0.16
ATTTAACC	0.171
ATGCGCAC	-0.0405
TCGATCCA	-0.0611
GTAAACAA	0.281
CTGGCGGC	-0.268
GAGCGGTA	-0.00807
AACTTACA	0.239
TTCCACAA	0.2
CATATGAG	0.14
GACGGATC	-0.163
CGGGACGA	-0.195
ACTAGCAC	-0.117
GTAGCCCA	-0.168
GTATGGCA	0.00338
TAAACTAA	0.309
CCACCCAC	-0.211
TCCGGAGA	-0.179
AAATGTTC	0.231
AACGCAAC	0.0897
